Results collected from several papers.
Lines come from different studies, so protocols differ. Numbers after ± are the reported error.

Under “stable disease duration”, `CSCC[C@H](NC(=O)CNC(=O)[C@H](CC(=O)O)NC(=O)[C@@H](NC(=O)[C@@H](NC(=O)[C@@H](NC(=O)CNC(=O)[C@H](CCC(N)=O)NC(=O)[C@H](CCSC)NC(=O)[C@H](CC(=O)O)NC(=O)[C@H](C)NC(=O)[C@H](C)NC(=O)[C@@H](NC(=O)[C@H](CO)NC(=O)[C@@H](N)CC(C)C)[C@@H](C)O)C(C)C)C(C)C)[C@@H](C)O)C(=O)N[C@@H](C)C(=O)N[C@@H](CO)C(=O)NCC(=O)N[C@@H](CC(C)C)C(=O)N[C@@H](CC(=O)O)C(=O)N[C@@H](CCCCN)C(=O)N[C@@H](CC(=O)O)C(=O)N[C@@H](Cc1ccc(O)cc1)C(=O)N[C@@H](CC(C)C)C(=O)N[C@@H](CCCCN)C(=O)N1CCC[C@H]1C(=O)N[C@@H](CC(=O)O)C(=O)N[C@@H](CC(=O)O)C(=O)O` is recorded as 7 to 61 weeks (p53-positive advanced solid tumour patients; dose not given, seven patients).
With `N=C(N)NCCC[C@H](NC(=O)[C@H](CCCNC(=N)N)NC(=O)[C@H](CCCNC(=N)N)NC(=O)[C@H](CCC(N)=O)NC(=O)[C@H](CCCNC(=N)N)NC(=O)[C@H](CCCNC(=N)N)NC(=O)[C@H](CCCCN)NC(=O)[C@H](CCCCN)NC(=O)[C@H](CCCNC(=N)N)NC(=O)[C@H](Cc1c[nH]c2ccccc12)NC(=O)[C@H](Cc1c[nH]c2ccccc12)NC(=O)[C@@H](N)CSSC[C@H](N)C(=O)N[C@@H](Cc1c[nH]c2ccccc12)C(=O)N[C@@H](Cc1c[nH]c2ccccc12)C(=O)N[C@@H](CCCNC(=N)N)C(=O)N[C@@H](CCCCN)C(=O)N[C@@H](CCCCN)C(=O)N[C@@H](CCCNC(=N)N)C(=O)N[C@@H](CCCNC(=N)N)C(=O)N[C@@H](CCC(N)=O)C(=O)N[C@@H](CCCNC(=N)N)C(=O)N[C@@H](CCCNC(=N)N)C(=O)N[C@@H](CCCNC(=N)N)C(=O)NCC(N)=O)C(=O)NCC(N)=O` the tdTomato-positive microglia was under 5% (ROSA26-LSL-tdTomato mice, sensorimotor cortex; intracortical, 200 µM, region 2, with: TAT-Cre 40 µM).
`C[C@@H](NC(=O)[C@@H](N)Cc1ccc(O)cc1)C(=O)NCC(=O)N(C)[C@@H](Cc1ccccc1)C(=O)NCCO` gave a stimulation of 1.68 ± 0.02 fold (C57BL/6 mouse striatal membranes; concentration not given; reference: basal).
Under “log2 fold change”, `Cc1ccc(/C=C/C(=O)O)cc1-c1cc2c(cc1C)C(C)(C)CCC2(C)C` is recorded as -0.007 (RNA sequencing, refers to: Scd1; rat, brain; dose not given, 24 h; reference: vehicle).
For `CC1=C(C(=O)Nc2ccc(C)cc2)C(c2ccccc2Br)NC(=S)N1` (stereo not drawn), “mean arterial pressure” read 23.5 ± 0.73 mm Hg (carotid artery cannulation; male Wistar rats, anaesthetised; 0.3 mL, 3 h).
For `CC[C@H](C)[C@H](NC(=O)[C@@H](NC(=O)[C@H](CC(=O)O)NC(C)=O)[C@@H](C)O)C(=O)N[C@@H](CCCNC(=N)N)C(=O)N[C@@H](CC(C)C)C(=O)N[C@@H](CC(C)C)C(=O)N[C@@H](Cc1ccccc1)C(=O)N[C@@H](CCC(N)=O)C(=O)N[C@@H](CC(C)C)C(=O)N[C@@H](CCSC)C(=O)N[C@@H](CCCNC(=N)N)C(=O)N1CCC[C@H]1C(=O)N1CCC[C@H]1C(=O)N[C@@H](CC(N)=O)C(=O)N[C@@H](CCSC)C(=O)N[C@H](C(=O)N1CCC[C@H]1C(=O)N[C@@H](C)C(=O)N[C@H](C(=O)N[C@@H](CC(N)=O)C(=O)N[C@@H](C)C(N)=O)C(C)C)[C@@H](C)O`, “antigen-experienced T cells” read 41.5% (refers to: HA-51 tetramer; tetramer+ CD4 T cells, PBMC, healthy adults, HLA-DRB1*0101; dose not given, CD62L−CD45RA+/− or CD62L+CD45RA−).
With `C=CCCCCOP(=O)(O)Oc1c2c(c(OP(=O)(O)OCCCCC=C)c3c1C1CC3c3cc4c(cc31)C1CC4c3ccccc31)C1CC2c2cc3c(cc21)C1CC3c2ccccc21` the EC50 was 18 µM (liposome dye leakage; liposomes 200 nm; 30 min, with: carboxyfluorescein 50 mM).
`CC[C@H](C)[C@H](NC(=O)[C@H](Cc1c[nH]c2ccccc12)NC(=O)[C@H](CCCNC(=N)N)NC(=O)[C@H](CCCCN)NC(=O)[C@H](CC(C)C)NC(=O)[C@H](CC(=O)O)NC(=O)[C@H](Cc1ccccc1)NC(=O)[C@H](C)NC(=O)[C@H](Cc1ccc(O)cc1)NC(=O)[C@H](CC(N)=O)NC(=O)[C@H](Cc1ccc(O)cc1)NC(=O)[C@H](CCCNC(=N)N)NC(=O)[C@H](Cc1ccc(O)cc1)NC(=O)[C@H](Cc1ccc(O)cc1)NC(=O)[C@@H](NC(=O)[C@H](CC(C)C)NC(=O)[C@H](C)NC(=O)[C@H](CC(N)=O)NC(=O)[C@H](Cc1ccc(O)cc1)NC(C)=O)[C@@H](C)CC)C(=O)N[C@@H](Cc1ccc(O)cc1)C(=O)N[C@@H](CC(C)C)C(N)=O`: “antigen-experienced T cells” 37.5% (refers to: HA-51 tetramer; tetramer+ CD4 T cells, PBMC, healthy adults, HLA-DRB1*0101; dose not given, CD62L−CD45RA+/− or CD62L+CD45RA−).
For `O=C1C=CC(=O)C(c2cc(Cl)ccc2Cl)=C1`, the fold induction was about 58 fold (ELISPOT, refers to: IFNγ+ cells; mouse splenocytes; concentration not given, maximal induction, comparable dose; reference: SSG).
With `CCN(Cc1ccccc1)C(=O)CCc1nc(CN2CCN(C(=O)Cc3ccc(OC)c(OC)c3)CC2)no1` the rheobase was 400 ± 42.3 pA (current clamp; L4-L6 DRG neurons, rat CCI model; 3 µM).
`O=c1c(O)c(-c2cc(O)ccc2O)oc2cc(O)cc(O)c12` — result for “ABTS radical scavenging”: 86.1 ± 2.31% (1000 µg/mL).
For `CCN(CCCCOc1ccc(CCC(=O)N2CCC(Cc3ccccc3)CC2)cc1OC)Cc1ccccc1`, the step-down latency was 170 s (step-down passive avoidance; scopolamine-induced amnesic mice; 13.0 mg/kg).
`CCc1nnc(-c2c(OC)cc(-c3cnc4cc(-c5cnn(C)c5)ccn34)cc2OC)o1`: mRNA level “increased” (RT-qPCR, refers to: Ctsk; male C57BL/6J mouse, cortical bone; oral gavage, dose not given, 3 wk once daily; reference: vehicle).
For `O=C(O)CCCC(=O)O`, “ABTS radical scavenging” read 47.5 ± 2.06% (62.5 µg/mL).
`CC(C)C[C@H](NC(=O)[C@H](Cc1ccccc1)NC(=O)CNC(=O)CNC(=O)[C@@H](N)Cc1ccc(OC(C(=O)O)c2ccccc2[N+](=O)[O-])cc1)C(=O)O` (stereo partly drawn) — result for response stability: “stable” (K+ current, agonist, photo-uncaging; rat locus coeruleus neurons; concentration not given, 15 repeated uncaging stimuli).
Under “time to peak effect”, `Cc1cc(Nc2nc(C[C@@]3(C(=O)O)CCN(Cc4cccc(Cl)c4F)[C@H](C)C3)cc(C)c2F)[nH]n1` is recorded as 12 h (refers to: phospho-histone H3 (Ser10); NCI-H446 xenograft mice, tumour tissue; oral, 10 mg/kg single).
Under “liver inflammation and fibrosis”, `CCCCCCCCCCCCCCCC(=O)N[C@@H](CCC(=O)NCCOCCOCCC(=O)NCCOCCOCCC(=O)NCCCC[C@H](NC(=O)[C@H](CC(=O)O)NC(=O)[C@H](CC(C)C)NC(=O)[C@H](Cc1ccc(O)cc1)NC(=O)[C@H](CCCCN)NC(=O)[C@H](CO)NC(=O)[C@H](Cc1ccc(O)cc1)NC(=O)[C@H](CC(=O)O)NC(=O)[C@H](CO)NC(=O)[C@@H](NC(=O)[C@H](Cc1ccccc1)NC(=O)[C@@H](NC(=O)CNC(=O)[C@H](CCC(N)=O)NC(=O)[C@@H](CO)NC(=O)[C@@H](N)Cc1c[nH]cn1)[C@@H](C)O)[C@@H](C)O)C(=O)N[C@@H](CCCNC(=N)N)C(=O)N[C@@H](CCCNC(=N)N)C(=O)N[C@@H](C)C(=O)N[C@@H](CCC(N)=O)C(=O)N[C@@H](CC(=O)O)C(=O)N[C@@H](Cc1ccccc1)C(=O)N[C@H](C(=O)N[C@@H](CCC(N)=O)C(=O)N[C@@H](Cc1c[nH]c2ccccc12)C(=O)N[C@@H](CC(C)C)C(=O)N[C@@H](CC(C)C)C(=O)N[C@@H](CC(N)=O)C(=O)N[C@H](C(=O)NCC(=O)NCC(=O)N1CCC[C@H]1C(=O)N[C@@H](CO)C(=O)N[C@@H](CO)C(=O)NCC(=O)N[C@@H](C)C(=O)N1CCC[C@H]1C(=O)N1CCC[C@H]1C(=O)N1CCC[C@H]1C(=O)N[C@@H](CO)C(N)=O)[C@@H](C)O)C(C)C)C(=O)O` is recorded as “decreased” (histology; C57BL/6J mouse CCl4 model; 60 µg/kg, 6 weeks).
For `O=C(O)/C=C/c1ccc(O)cc1`, “ABTS radical scavenging” read 57.3 ± 1.6% (125 µg/mL).
`COc1cc2ncnc(Oc3cccc(N[11C](=O)Nc4cc(C(C)(C)C(F)(F)F)on4)c3)c2cc1OC` has a radioactivity of 347 ± 8.24 PSL/mm² (in vitro autoradiography; A-375 melanoma xenograft sections; 11.6 MBq/L, 30 min, 25 °C, radiolabelled compound alone).
Under “GFAP-positive glial activation”, `somatostatin` is recorded as 0% (Sprague-Dawley rat, streptozotocin-induced diabetes, retina; eye drops, 10 mg/mL, score 4).
With `O=P(O)(O)Oc1c2c(c(OP(=O)(O)O)c3c1C1CC3c3cc4c(cc31)C1CC4c3ccccc31)C1CC2c2cc3c(cc21)C1CC3c2ccccc21` the EC50 was 79.2 µM (liposome dye leakage; liposomes 200 nm; 30 min, with: carboxyfluorescein 50 mM).
For `O=C(O)/C=C/c1cc(O)cc(O)c1`, “ABTS radical scavenging” read 56.2 ± 2.11% (125 µg/mL).
`C=CCCCOP(=O)(O)Oc1c2c(c(OP(=O)(O)OCCCC=C)c3c1C1CC3c3cc4c(cc31)C1CC4c3ccccc31)C1CC2c2cc3c(cc21)C1CC3c2ccccc21` gave an EC50 of 19.4 µM (liposome dye leakage; liposomes 200 nm; 30 min, with: carboxyfluorescein 50 mM).
For `COc1ccc([N+](=O)[O-])cc1NC(=O)CCC(=O)[O][Zn][O]C(=O)CCC(=O)Nc1cc([N+](=O)[O-])ccc1OC.c1ccncc1`, “ABTS radical scavenging” read 80.5 ± 1.02% (ABTS; 1000 µg/mL).

A few entries again:
For `CCN(CCCCOc1ccc(CCC(=O)N2CCC(Cc3ccccc3)CC2)cc1OC)Cc1ccccc1`, the step-down latency was 170 s (step-down passive avoidance; scopolamine-induced amnesic mice; 13.0 mg/kg).
`CCc1nnc(-c2c(OC)cc(-c3cnc4cc(-c5cnn(C)c5)ccn34)cc2OC)o1`: mRNA level “increased” (RT-qPCR, refers to: Ctsk; male C57BL/6J mouse, cortical bone; oral gavage, dose not given, 3 wk once daily; reference: vehicle).
